Measurements gathered from unrelated publications.
Compare with care: the assays were run in different laboratories. ± marks the error that the study gave. Ends that are not written are not given here. * marks the point of attachment.

Molecule | assay | test system | setting | scale | quantity | result
Cc1cccc(N(O)N=Nc2ccc(S(=O)(=O)Nc3nccs3)cc2)c1 | paw oedema | rat, carrageenan oedema | oral, 100 mg/kg, 4 h after carrageenan | relative to: vehicle | inhibition | 74.3%
Cc1c(C)c2c(c(C)c1O)CCC(C)(C(=O)NN=C1C(=O)Nc3ccccc31)O2 (stereo not shown) | seizure protection | male CF-1 mice | intraperitoneal, 4 h, added: maximal electroshock |  | minimal effective dose | > 300 mg/kg
Cn1cnc2c(F)c(Nc3ccc(Br)cc3Cl)c(C(=O)NOCCO)cc21 | immunohistochemistry | cancer patients | dose not given, threshold 30%, alone or with cyclosporin A |  | patients with p-ERK inhibition | 46.6%
NC(=O)N1c2ccccc2C=Cc2ccccc21 |  | Scn1a+/- mice | oral in chow, dose not given, spontaneous seizures, subchronic | relative to: untreated | GTCS progressing to tonic hindlimb extension | decreased
O=C1NC(=O)C(c2ccccc2)(c2ccccc2)N1 | seizure protection | male CF-1 mice | intraperitoneal, 0.5 h, added: maximal electroshock |  | minimal effective dose | 30 mg/kg
CCOC(=O)c1sc(N=C2c3ccccc3-c3nc4cc(F)ccc4nc32)nc1C |  | mice with STZ-induced diabetes | oral, 25 mg/kg, 288 h, day 12 |  | blood glucose | 178 ± 3.8 mg/dL
Palmitoyl-SMTSCAPS (N-palmitoyl; Palmitoyl = CCCCCCCCCCCCCCCC(=O)*) |  | SCID mouse, subcutaneous AsPC-1 xenograft, tumour tissue | intratumoral, 500 µg/mouse/day, 3 weeks |  | Ki67-positive nuclei | 44.4 ± 3.94%
COc1c(C)c(C)c2c(c1C)CCC(C)(C(=O)NN=C1C(=O)Nc3ccc(Br)cc31)O2 (stereo not shown) | seizure protection | male CF-1 mice | intraperitoneal, 0.5 h, added: pentylenetetrazole 60 mg/kg subcutaneous |  | minimal effective dose | 30 mg/kg
O=S(=O)(Nc1nccs1)c1ccc(N=NN(O)c2ccccc2)cc1 | paw oedema | rat, carrageenan oedema | oral, 100 mg/kg, 4 h after carrageenan | relative to: vehicle | inhibition | 79.7%
CCOC(=O)c1sc(NN=C2c3ccccc3-c3nc4cc(F)ccc4nc32)nc1C |  | mice with STZ-induced diabetes | oral, 25 mg/kg, 288 h, day 12 |  | blood glucose | 355 ± 18.4 mg/dL
Cc1c(C)c2c(c(C)c1OCc1ccccc1)CCC(C)(C(=O)NN=C1C(=O)N(C)c3ccc(Cl)cc31)O2 (stereo not shown) | seizure protection | male CF-1 mice | intraperitoneal, 4 h, added: pentylenetetrazole 60 mg/kg subcutaneous |  | minimal effective dose | 100 mg/kg
COc1ccc(S(=O)(=O)N(Cc2cccnc2)[C@@H](C(=O)NO)C(C)C)cc1 |  | rat, isolated perfused heart | dose not given, stunning, global no-flow ischaemia 20-25 min |  | ventricular weight | 87.9 ± 2.2 mg
CCOc1ccc(Cc2cc([C@]34OC[C@](CO)(O3)[C@@H](O)[C@H](O)[C@H]4O)ccc2Cl)cc1 |  | human, type 2 diabetes, moderate renal impairment | dose not given, 24 h | relative to: normal renal function median | urinary glucose excretion | ~42%
FC(F)(F)c1ccc(CNc2ccc(Cc3c[nH]c4ncc(Cl)cc34)cn2)cn1 |  | mice, prostate bone cancer | oral, in chow, 30 mg/kg/day, from day 14, days 49, 56, 63 | relative to: vehicle | spontaneous flinches | decreased
insulin aspart | euglycaemic glucose clamp | Japanese type 1 diabetes patients | subcutaneous, 0.2 U/kg |  | onset of action | 25.5 min
PHGYFLPGQFA | ELISA or Luminex | peptide, mouse peritoneal macrophages, C57BL/6 mouse | optimal dose within 0.1 pM to 100 nM, 1 h pretreatment, 15 h stimulation, added: LPS 100 ng/mL + IFN-γ 20 ng/mL | relative to: LPS/IFN-γ stimulated control | inhibition of TNF-α release | 0%
NCCCC[C@@H]1NC(=O)[C@@H](Cc2c[nH]c3ccccc23)NC(=O)[C@H](c2ccccc2)NC(=O)[C@@H]2C[C@@H](OC(=O)NCCN)CN2C(=O)[C@H](Cc2ccccc2)NC(=O)[C@H](Cc2ccc(OCc3ccccc3)cc2)NC1=O | GHRH-stimulated GH secretion | healthy human volunteers | subcutaneous, 200 µg, added: GHRH 1 µg/kg | relative to: pre-dose baseline | GH AUC(0-2h) change | -79.1%
Cc1c(C)c2c(c(C)c1O)CCC(C)(C(=O)NN=C1C(=O)Nc3ccc(Cl)cc31)O2 (stereo not shown) | seizure protection | male CF-1 mice | intraperitoneal, 0.5 h, added: pentylenetetrazole 60 mg/kg subcutaneous |  | minimal effective dose | 100 mg/kg
Cc1cc(C(=O)/C(=C\c2ccccc2C)c2ccccc2C)c(C(=O)N2CCCCC2)c(=O)[nH]1 | cell proliferation, MTT | 35404 melanoma brain metastasis, human patient-derived | 72 h, tested up to 10 µM |  | IC50 | > 10 µM
CC(C)C[C@H](NC(=O)[C@H](CO)NC(=O)[C@H](CCCNC(=N)N)NC(=O)[C@H](CC(=O)O)NC(=O)[C@H](CCC(=O)O)NC(=O)[C@H](C)NC(=O)[C@@H]1CCCN1C(=O)[C@H](C)NC(=O)[C@H](CCC(=O)O)NC(=O)[C@@H]1CCCN1C(=O)[C@@H]1CCCN1)C(N)=O | HPLC-EC | F344 rat, normal, substantia nigra | intranasal, 100 µg, 5 days/week for 3 weeks |  | HVA level | 37 ± 7 ng/g
Cc1c(C)c2c(c(C)c1O)CCC(C)(C(=O)NN=C1C(=O)Nc3ccc(F)cc31)O2 (stereo not shown) | seizure protection | male CF-1 mice | intraperitoneal, 4 h, added: maximal electroshock |  | minimal effective dose | > 300 mg/kg
CC[C@H](C)[C@H](NC(=O)[C@H](CCC(=O)O)NC(=O)[C@H](CO)NC(=O)[C@@H](NC(=O)[C@@H](N)CO)C(C)C)C(=O)N[C@@H](CCC(N)=O)C(=O)N[C@@H](CC(C)C)C(=O)N[C@@H](CCSC)C(=O)N[C@@H](Cc1c[nH]cn1)C(=O)N[C@@H](CC(N)=O)C(=O)N[C@@H](CC(C)C)C(=O)NCC(=O)N[C@@H](CCCCN)C(=O)N[C@@H](Cc1c[nH]cn1)C(=O)N[C@@H](CC(C)C)C(=O)N[C@@H](CC(N)=O)C(=O)N[C@@H](CO)C(=O)N[C@@H](CCSC)C(=O)N[C@@H](CCC(=O)O)C(=O)N[C@@H](CCCNC(=N)N)C(=O)N[C@H](C(=O)N[C@@H](CCC(=O)O)C(=O)N[C@@H](Cc1c[nH]c2ccccc12)C(=O)N[C@@H](CC(C)C)C(=O)N[C@@H](CCCNC(=N)N)C(=O)N[C@@H](CCCCN)C(=O)N[C@@H](CCCCN)C(=O)N[C@@H](CC(C)C)C(=O)N[C@@H](CCC(N)=O)C(=O)N[C@@H](CC(=O)O)C(=O)N[C@H](C(=O)N[C@@H](Cc1c[nH]cn1)C(=O)N[C@@H](CC(N)=O)C(=O)N[C@@H](Cc1ccccc1)C(=O)O)C(C)C)C(C)C | refers to: corrected serum calcium | postmenopausal women, osteoporosis | subcutaneous, 56.5 µg once weekly, 6 h |  | peak serum calcium | 9.7 to 9.8 mg/dL

Excerpt of the above:
Molecule | assay | test system | setting | scale | quantity | result
CC(C)C[C@H](NC(=O)[C@H](CO)NC(=O)[C@H](CCCNC(=N)N)NC(=O)[C@H](CC(=O)O)NC(=O)[C@H](CCC(=O)O)NC(=O)[C@H](C)NC(=O)[C@@H]1CCCN1C(=O)[C@H](C)NC(=O)[C@H](CCC(=O)O)NC(=O)[C@@H]1CCCN1C(=O)[C@@H]1CCCN1)C(N)=O | HPLC-EC | F344 rat, normal, substantia nigra | intranasal, 100 µg, 5 days/week for 3 weeks |  | HVA level | 37 ± 7 ng/g
Cc1c(C)c2c(c(C)c1O)CCC(C)(C(=O)NN=C1C(=O)Nc3ccc(F)cc31)O2 (stereo not shown) | seizure protection | male CF-1 mice | intraperitoneal, 4 h, added: maximal electroshock |  | minimal effective dose | > 300 mg/kg
CC[C@H](C)[C@H](NC(=O)[C@H](CCC(=O)O)NC(=O)[C@H](CO)NC(=O)[C@@H](NC(=O)[C@@H](N)CO)C(C)C)C(=O)N[C@@H](CCC(N)=O)C(=O)N[C@@H](CC(C)C)C(=O)N[C@@H](CCSC)C(=O)N[C@@H](Cc1c[nH]cn1)C(=O)N[C@@H](CC(N)=O)C(=O)N[C@@H](CC(C)C)C(=O)NCC(=O)N[C@@H](CCCCN)C(=O)N[C@@H](Cc1c[nH]cn1)C(=O)N[C@@H](CC(C)C)C(=O)N[C@@H](CC(N)=O)C(=O)N[C@@H](CO)C(=O)N[C@@H](CCSC)C(=O)N[C@@H](CCC(=O)O)C(=O)N[C@@H](CCCNC(=N)N)C(=O)N[C@H](C(=O)N[C@@H](CCC(=O)O)C(=O)N[C@@H](Cc1c[nH]c2ccccc12)C(=O)N[C@@H](CC(C)C)C(=O)N[C@@H](CCCNC(=N)N)C(=O)N[C@@H](CCCCN)C(=O)N[C@@H](CCCCN)C(=O)N[C@@H](CC(C)C)C(=O)N[C@@H](CCC(N)=O)C(=O)N[C@@H](CC(=O)O)C(=O)N[C@H](C(=O)N[C@@H](Cc1c[nH]cn1)C(=O)N[C@@H](CC(N)=O)C(=O)N[C@@H](Cc1ccccc1)C(=O)O)C(C)C)C(C)C | refers to: corrected serum calcium | postmenopausal women, osteoporosis | subcutaneous, 56.5 µg once weekly, 6 h |  | peak serum calcium | 9.7 to 9.8 mg/dL
